Experimental data gathered from unrelated publications.
Each numbered part is a random draw from the data of one study; scales do not carry over between parts.

Block 1 — technique: protein binding microarray; form: double-stranded DNA, one strand shown; sample: in vitro; concentration: not given; reference: not given; direction: higher = stronger binding
Target: Histone acetyltransferase KAT6A, winged helix 1, GST fusion (KAT6A, Homo sapiens, UniProt Q92794, residues 1-85)
Setting: 8-mer, flanks averaged, mean of 2 arrays, mostly near background
Residues (chain): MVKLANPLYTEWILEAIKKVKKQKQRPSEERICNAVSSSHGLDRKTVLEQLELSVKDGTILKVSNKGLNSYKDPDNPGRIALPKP
| Sequence | E-score |
| --- | --- |
| AAAGTCTT | -0.206 |
| ATTGACTG | -0.168 |
| AGGGGGAG | -0.0956 |
| CGGAGATC | -0.019 |
| ATACGTTA | -0.117 |
| GCTTTAGA | -0.183 |
| ACGCCGTC | 0.416 |
| ACTTCATA | -0.0302 |
| CGCAGTGA | 0.148 |
| CAGGATAG | -0.0881 |
| CGAGCAGA | -0.0858 |
| CGTCAATC | 0.0733 |
| GCCAGCTA | -0.119 |
| AAGCCCTC | -0.06 |
| GATGATAA | -0.0561 |
| ATCCAAAG | -0.234 |
| GAAAGTAC | 0.0379 |
| CCCCCTGA | -0.0505 |
| GCACAGGA | -0.0668 |
| ACGCGGTG | 0.268 |
| AACGCACA | -0.0442 |
| ACCTTTCG | -0.037 |
| CTCATGAG | -0.114 |
| GTATCCAA | -0.203 |

Block 2 — technique: competition protein-binding microarray; form: double-stranded DNA, one strand shown; sample: in vitro; concentration: 2 µM; together with: Cbf1 competitor, 0.05 µM; direction: higher = stronger binding; all sequences stand within: … GTCTTGATTCGCTTGACGCTGCTG
Target: Phosphate system positive regulatory protein PHO4, full length, GST-tagged (PHO4, Saccharomyces cerevisiae, UniProt P07270, residues 1-312)
Setting: whole 60-bp probe, lowest competitor level
Residues (chain): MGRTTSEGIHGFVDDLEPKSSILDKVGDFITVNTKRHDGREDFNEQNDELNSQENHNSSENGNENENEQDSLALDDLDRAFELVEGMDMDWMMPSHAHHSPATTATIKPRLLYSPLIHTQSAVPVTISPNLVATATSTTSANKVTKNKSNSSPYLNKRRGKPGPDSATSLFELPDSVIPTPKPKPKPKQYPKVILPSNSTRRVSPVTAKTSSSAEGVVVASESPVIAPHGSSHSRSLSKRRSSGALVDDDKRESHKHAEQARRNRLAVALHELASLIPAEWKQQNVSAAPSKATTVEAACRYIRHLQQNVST
| Sequence | fluorescence intensity |
| --- | --- |
| TTGGTGGGGACTCTGCATGTGAAGAAGCTCAGTTCT | 5760 a.u. |
| GGTAGTAGAACCCGTCACGTCATTACTTGATGTTGC | 5240 a.u. |
| TCCTCACAGATCTGCCACGTGGCTGTGCGGCTGACC | 17100 a.u. |
| CGGGGTTAAGTTTGGAGTGTGGGTGGCTTGCAGCAG | 5430 a.u. |
| AAATTACTAAGTTTACACGTGTTTTACCCCGTATGA | 18500 a.u. |
| CGCCCGACGTCATTCCTCGTGATGGCTTCTGTTGTT | 7340 a.u. |
| AACTAAACCTCTTCGTGCGTGATGGAGTTGGAAACG | 8090 a.u. |
| CTCAGTCTCTGGAAAAACGTGCTTTTTAACGGTTAT | 14300 a.u. |
| CGTAAACCTGACACCCTCGTGGGAGGAGCGCGCCCC | 12700 a.u. |
| ATGAAATGCTGGAATCACCTGACTCACAAAACTGGG | 3850 a.u. |
| GCTGTGATAAAGAACTTCGTGCTTTTTTGGGTTACA | 6070 a.u. |
| CTTTCCCGATCTTGTCACTGCACTTTAGCACATTTG | 3920 a.u. |
| AAACAAACCCTTACCCACGTGGCCGTATGGCTATGT | 20800 a.u. |
| CGGGGTTAAGTTTGTGGGGTGGGTGGCTTGCAGCAG | 5450 a.u. |
| TCTGTTATTGCTGATCGCGTGGCCGTTAAATTGGTT | 8750 a.u. |
| GGTTCAAAATCCCGTCACGATGAAATAGAAAATGAA | 5960 a.u. |
| CTTGCCTACATATATTTCGTGCGATTTCAAAAATAA | 5500 a.u. |
| CGGTAACATTTGAAACATGTGCCAGACTCCGAATGG | 11100 a.u. |
| TGCGCAACAACTTGCGGGGTGGGTGTATGTCTAGAA | 5310 a.u. |

Block 3 — technique: aptamer microarray, sandwich; form: DNA with 2'F-ANA; sample: in vitro; concentration: 200 nM; together with: Cy3 exosite-II aptamer, 400 nM; direction: higher = stronger binding; sequence: GGTTGGTGTGGTTGG
Target: Prothrombin, mature alpha-thrombin (F2, Homo sapiens, UniProt P00734)
Setting: whole 15-mer aptamer, many near background
| Modification | mean fluorescence intensity |
| --- | --- |
| 2'F-ANA at 1 2 6 8 9 10 11 12 13 | 63.5 a.u. |
| 2'F-ANA at 3 4 5 6 7 11 12 13 14 15 | 60.7 a.u. |
| 2'F-ANA at 1 2 10 13 | 48.2 a.u. |
| 2'F-ANA at 4 5 7 9 14 | 44.4 a.u. |
| 2'F-ANA at 2 3 4 6 10 11 13 | 221 a.u. |
| 2'F-ANA at 1 3 6 14 | 86.8 a.u. |
| 2'F-ANA at 3 5 7 8 9 10 11 12 14 15 | 53.4 a.u. |
| 2'F-ANA at 5 6 7 10 14 | 42.9 a.u. |
| 2'F-ANA at 4 5 7 8 9 12 14 15 | 50 a.u. |
| 2'F-ANA at 1 8 9 10 12 15 | 72.7 a.u. |
| 2'F-ANA at 2 3 4 8 10 11 12 14 15 | 171 a.u. |
| 2'F-ANA at 1 6 9 12 14 | 73.6 a.u. |
| 2'F-ANA at 1 4 5 6 7 8 9 13 | 52.8 a.u. |
| 2'F-ANA at 1 3 4 5 6 7 9 13 14 | 81.6 a.u. |
| 2'F-ANA at 3 6 10 11 15 | 460 a.u. |
| 2'F-ANA at 3 4 7 8 10 11 13 14 15 | 184 a.u. |
| 2'F-ANA at 1 4 5 8 9 10 11 12 14 | 47.5 a.u. |
| 2'F-ANA at 1 3 4 6 7 9 10 11 14 15 | 52.4 a.u. |
| 2'F-ANA at 3 4 9 10 11 12 13 | 296 a.u. |
| 2'F-ANA at 5 6 7 10 11 14 15 | 49.4 a.u. |
| 2'F-ANA at 1 3 4 6 7 8 10 12 | 87.2 a.u. |
| 2'F-ANA at 2 3 4 5 7 8 10 11 13 14 | 48.5 a.u. |

Block 4 — technique: RNA Bind-n-Seq; form: RNA; sample: in vitro; concentration: not given; reference: input RNA pool; direction: higher = stronger binding
Target: RING finger protein unkempt homolog, zinc fingers 1-6, GST-SBP tag (UNK, Homo sapiens, UniProt Q9C0B0, residues 30-357)
Setting: RNA with constant flanks, human and mouse sites, ends assumed
All sequences stand within: GGGAGUUCUACAGUCCGACGAUC … CAACAGAGGAUUGAGCAUCA
Residues (chain): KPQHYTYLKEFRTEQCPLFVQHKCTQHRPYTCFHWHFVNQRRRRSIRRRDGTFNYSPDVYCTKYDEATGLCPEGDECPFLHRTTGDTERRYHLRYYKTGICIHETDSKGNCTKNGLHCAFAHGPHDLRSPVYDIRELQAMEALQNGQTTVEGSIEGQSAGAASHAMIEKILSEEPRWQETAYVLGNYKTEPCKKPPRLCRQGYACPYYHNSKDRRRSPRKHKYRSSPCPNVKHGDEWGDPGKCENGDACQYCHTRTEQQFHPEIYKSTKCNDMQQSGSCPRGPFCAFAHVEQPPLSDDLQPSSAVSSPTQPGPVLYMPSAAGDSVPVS
| Sequence | bound/input enrichment [ratio] |
| --- | --- |
| ACUAAACAGGAAGGGAUGGAAGGUCUCCUUGGGACUCUUGUUCAGCUUCUGGGUUCAGAUGAUAUAAAUGUGGUCACCUGUGCAGCUGGAAUUCUUUCUAACCUCACUUGCAAUAAUUAU | 0.14 |
| GAGUCCGCUGCCCCGGCCCUCCAGGGCCGCCUCCUCUGUUUGCUUUGCAGAGGAGGGAACUGCUCCUUCGACUCUGCAGCUCAGGCCUGUCCCCGACACAGCCCCCAGGGAGUCUUCUAG | 0.137 |
| AAGAUAAACAGAAUAGACCAUGACCGGAGAGCGAUGGCUACUUUGCUUAGCAAGUUCCGGAUAGACUUUUCUGAUAUCAUGGUUCUAGGAGAUAUCAAUACCAAACCAAAGAAAGAAAAU | 0.15 |
| UGUCCUUGACUCUUGGGUCUGUGGGCCAUGGCAUGAGUGUUUUCUAGUAGUAGAUUGGAGGGAAAGCUUUGUGACACUUAGUACUGUGUUUUUAAGAAGAAAUAAUUUGGUUCCAGAUGU | 1.28 |
| AAUUUUAACCAAGAAUCUGAAGGUAGAAAUACAGGACCAUGGUUAUCUUCCUCACUUAGAAAUAGAUGCACACCUUUGUUCUCUAGAAGGAGGCGAGAGGGAAGAGAUGAAUCUUCAAGG | 4.63 |
| UCUUUGGCUUUUUCUCGGCACGUGGUGUCUCCACCAUUUCUUCUGCACAAAGACGUCUUCUGUUCACCCUGAACAUUUUAAAAUGCAGAAUUUUAUGUGACUGCUUUUUUGCCUCACAAU | 0.144 |
| CACACCCUCUUCUGUGGCACCCUCAUUCUGCAGGCCCGAGCCUACGUGGGACCCCGUGUGCUAGCAGUGGUGACUCGGACAGGGUUCUGCACAGCCAAAGGGGGCCUGGUGAGCUCCAUC | 0.0736 |
| CCAGCGGGCGCAGCCGCGGCGGCGCGGGCCUCCCUAGCUGACACUCCCCCUGCGCGCCCCUCCCCCGCCGCGGCGGAAUCCCGCCCGCCCUCCGGUCCGCGCGCGAGCCCGAGGCCGCUU | 1.32 |

For quick reference, copied from above (block 1):
| Sequence | E-score |
| --- | --- |
| CGAGCAGA | -0.0858 |
| CTCATGAG | -0.114 |
| ATTGACTG | -0.168 |
| GCCAGCTA | -0.119 |
| GCACAGGA | -0.0668 |
